Measurements from different studies.
± gives the spread as reported. Converted amounts (≈) assume the structure as drawn.

Cl.N=C(N)NCCNS(=O)(=O)c1cccc2cnccc12 — result for “microtubule sliding velocity”: “increased” (Chlamydomonas reinhardtii; dynein-driven sliding; pf14, isolated axonemes; 15 µM, 15 min, with: 1 mM ATP).
The pseudovirus entry of CN1CCN(CCCN2c3ccccc3Sc3ccc(C(F)(F)F)cc32)CC1 is reported as 0.31 ± 0.06 (coronavirus spike pseudovirus; luciferase reporter; ACE2-high cells; 20 µM, unit not given; relative to: untreated).
O=C(O)C(=O)CBr: “decrease of intracellular amastigotes” 18.6% (Leishmania infantum; U-937 macrophages, infected; 273 µM, 48 h, highest non-cytotoxic concentration).
For CCCCCCCCCCCC(=O)N/N=C/c1ccccc1Cl, the MIC was 37.2 µM (≈ 12.5 µg/mL) (Aspergillus niger; microbial growth, broth dilution; 7 days).
For N#Cc1ccc(-c2ccc(-c3ccco3)o2)cc1F, the mutant frequency was 24% (Salmonella enterica; TA1535; 20 µM, 48 h, with: sodium azide co-exposure; relative to: sodium azide alone).
The cumulative mortality of `tannic acid` is reported as 52.3 ± 4.2% (viral haemorrhagic septicaemia virus; zebrafish; oral, 50 µg/fish/day, 15 days, dosed 3 days before challenge).
With N#Cc1ccc(-c2ccc(-c3cccs3)o2)cc1F the mutant frequency was 35% (Salmonella enterica; TA1535; 10 µM, 48 h, with: sodium azide co-exposure; relative to: sodium azide alone).
c1ccc(CN2CCCNCCN(Cc3ccccc3)CCCNCC2)cc1 gave an IC90 of 17.8 µM (Leishmania donovani; parasite growth, resazurin; 72 h, promastigote).
O=C(/C=C/c1ccccc1)N/N=C/c1ccccc1 gave an MIC of 50.1 µM (≈ 12.5 µg/mL) (Staphylococcus aureus, Bacillus subtilis, Escherichia coli; bacterial growth; 24 h).
With CO/C(=C/C(N)=O)[C@H](C)[C@H](/C=C/c1csc(-c2csc([C@@H](C)/C=C/C=C/C(C)C)n2)n1)OC the IC50 was 0.073 µM (Wickerhamomyces anomalus; O2 uptake, inhibitor; mitochondria; with: succinate 15 mM).
With N#Cc1ccc(-c2ccc(-c3cccs3)o2)c(F)c1 the mutant frequency was 29% (Salmonella enterica; TA1535; 20 µM, 48 h, with: sodium azide co-exposure; relative to: sodium azide alone).
Cc1cc(C(C#N)c2ccc(Cl)cc2)c(Cl)cc1NC(=O)c1cc(I)cc(I)c1O (centres unmarked) has an IC90 of 0.8 ± 0.3 µM (dengue virus type 2 New Guinea C; viral yield; single-cycle yield reduction).
For CN1CCN2CCN(CC1)CCN(Cc1ccccc1)CC2, the IC90 was greater than 20 µM (Leishmania donovani; parasite growth, resazurin; 72 h, promastigote).
With CCC(C)(C)C(=O)O[C@H]1C[C@@H](C)C=C2C=C[C@H](C)[C@H](CC[C@@H]3C[C@@H](O)CC(=O)O3)[C@H]21 the EC90 was 8.6 ± 0.8 µM (hepatitis B virus; viral replication; HepG2.2.15).
`TFFRLFNRGRRRRSVQWCA`: biofilm growth “decreased” (Streptococcus mutans; OD600; peptide, UA159, 4 h single-species biofilm; 128 µg/ml, 5 min exposure, OD600 read over 5 h).
With C[C@H](Cn1cnc2c(N)ncnc21)OCP(=O)(O)O the inhibition was 98% (human alphaherpesvirus 2; virus production, plaque reduction; human monocytes/macrophages; 20 µg/mL, 6 days).
Under “lowest effective concentration”, COC(=O)CNC(=O)/C=C\C/C=C\NC(=O)/C=C(C)/C=C/[C@H](C)[C@H](OC)[C@H](C)[C@H](/C=C/c1ccccc1)OC is recorded as greater than 180 µM (Zymoseptoria tritici; disease control, glasshouse foliar spray; Triticum aestivum; disease control 100%).
Under “reduction in live tick counts”, CS(=O)(=O)CC(=O)N1CC2(C1)OCc1cc(C3=NO[C@@](c4cc(Cl)c(F)c(Cl)c4)(C(F)(F)F)C3)ccc12 is recorded as 86.3% (Ixodes scapularis; dog; oral, 2 mg/kg, day 29, dosed 21 days pre-infestation; relative to: placebo).
Under “microbiological response at end of treatment”, CC[C@H](C)CCCCC(=O)N[C@@H](CCN)C(=O)N[C@H](C(=O)N[C@@H](CCN)C(=O)N[C@H]1CCNC(=O)[C@H]([C@@H](C)O)NC(=O)[C@H](CCN)NC(=O)[C@H](CCN)NC(=O)[C@H](CC(C)C)NC(=O)[C@@H](Cc2ccccc2)NC(=O)[C@H](CCN)NC1=O)[C@@H](C)O is recorded as “negative” (Enterobacter cloacae; carbapenem-resistant, human; inhaled plus intravenous, 25 mg inhaled plus 75 mg intravenous every 12 h, 11 d, with: fosfomycin and sulfamethoxazole).
For N=C(N)c1ccc(-c2ccc(-c3ccco3)o2)cc1F, the mutant frequency was 30% (Salmonella enterica; TA1535; 20 µM, 48 h, with: sodium azide after pre-exposure; relative to: sodium azide alone).
With Cc1cccc(C2=NN3C(=NCN3/C=C/c3ccccc3)S2)c1 the LC50 was 130 µg/mL (≈ 406 µM) (Aedes aegypti; third instar larvae).
For CCCCCCCCCCCCCCCCCC(=O)N/N=C/c1ccccc1, the MIC was 25.7 µM (≈ 9.94 µg/mL) (Staphylococcus aureus, Bacillus subtilis, Escherichia coli; bacterial growth; 24 h).
O=Cc1cn(Cc2ccccc2)c2ccc([N+](=O)[O-])cc12 has an IC50 of greater than 89 µM (Trypanosoma equiperdum; trypomastigotes, IVM-t1).
The mutant frequency of N#Cc1ccc(-c2ccc(-c3cccs3)s2)cc1F is reported as 17% (Salmonella enterica; TA1535; 10 µM, 48 h, with: sodium azide after pre-exposure; relative to: sodium azide alone).
The IC50 of O=Cc1cn(Cc2ccc(F)cc2)c2ccc([N+](=O)[O-])cc12 is reported as 97.2 µM (Leishmania major; parasite growth, resazurin; promastigote).
With N=C(N)c1ccc(-c2ccc(-c3ccco3)o2)c(F)c1 the inhibition was 74% (Salmonella enterica; sodium azide mutagenicity; TA1535; 10 µM, 48 h, with: sodium azide 2 µg/plate after pre-exposure).
N#Cc1c(-c2ccc3c(c2)OCO3)[nH]c2nc(N)[nH]c(=O)c12 gave an ED50 of 123 ± 3.3 µM (Trypanosoma brucei brucei; Alamar blue; Lister 427 bloodstream form; concentration not given, 10% fetal calf serum).
Under biofilm growth, `TFFRLFNRSFTGRRRRSVQWCA` is recorded as “decreased” (Streptococcus mutans; OD600; peptide, UA159, 4 h single-species biofilm; 128 µg/ml, 5 min exposure, OD600 read over 5 h).
Under antiviral activity, Nc1nc(N)c2nc(-c3ccccc3)c(N)nc2n1 is recorded as “inactive” (human respiratory syncytial virus; BEAS-2B, A2-L19F-renilla; concentration not given).
SC1=NCN(/C=C/c2ccccc2)N1N=Cc1ccc(Br)cc1 gave an LC50 of 140 µg/mL (≈ 361 µM) (Aedes aegypti; third instar larvae).
COc1cc(OC)cc(C(=O)N/N=C/c2ccccc2)c1 has an MIC of 43.7 µM (≈ 12.4 µg/mL) (Staphylococcus aureus, Bacillus subtilis, Escherichia coli; bacterial growth; 24 h).
The IC90 of CN1CCCN2CCN(CCCN(Cc3ccccc3)CC2)CC1 is reported as greater than 20 µM (Leishmania donovani; parasite growth, resazurin; 72 h, promastigote).
With N#Cc1ccc(-c2ccc(-c3ccco3)o2)c(F)c1 the inhibition was 95 ± 13.6% (Salmonella enterica; sodium azide mutagenicity; TA1535; 20 µM, 48 h, with: sodium azide 2 µg/plate co-exposure).
With CC(C)C[C@H](NC(=O)[C@H](C)NC(=O)[C@H](CCCCN)NC(=O)[C@H](C)NC(=O)[C@H](CC(C)C)NC(=O)[C@H](CCCCN)NC(=O)[C@H](CC(C)C)NC(=O)[C@H](Cc1c[nH]c2ccccc12)NC(=O)[C@H](CC(C)C)NC(=O)[C@H](CC(C)C)NC(=O)[C@H](C)NC(=O)[C@H](CC(C)C)NC(=O)[C@H](CC(C)C)NC(=O)[C@H](CCCCN)NC(=O)[C@@H]1CCCN1C(=O)[C@H](C)NC(=O)[C@H](CCCCN)NC(=O)[C@H](C)NC(=O)[C@H](CC(C)C)NC(=O)[C@H](CCCCN)NC(=O)[C@@H](N)CCCCN)C(=O)N[C@@H](CCCCN)C(=O)N[C@@H](CCCCN)C(=O)N[C@@H](C)C(N)=O the MIC50 was 2.97 ± 0.15 µM (≈ 7.89 µg/mL) (Escherichia coli; broth microdilution; NCTC 9001; overnight, 37 °C).
N=C(N)c1ccc(-c2ccc(-c3cccs3)o2)cc1F has a mutant frequency of 43% (Salmonella enterica; TA1535; 10 µM, 48 h, with: sodium azide after pre-exposure; relative to: sodium azide alone).
CP(=O)(O)CCC(N)C(=O)O (centres unmarked) gave a herbicidal activity of 80% (Eleusine indica; 60 g/ha, 13 days, ELEIN, post-emergence spray; relative to: untreated (0%), complete kill (100%)).
CCCCCCCCCCCC(=O)N/N=C/c1ccccc1 has an MIC of 44.7 µM (≈ 13.5 µg/mL) (Staphylococcus aureus, Bacillus subtilis, Escherichia coli; bacterial growth; 24 h).
C=CC1=C(C)/C(=C/C2=NC(=C\c3[nH]c(/C=C4\NC(=O)C(C)=C4C=C)c(C)c3CCC(=O)O)/C(CCC(=O)O)=C2C)NC1=O: “lowest effective concentration” 20 µM (hepatitis C virus; viral replication, RT-PCR; Huh5-15 NS replicon; 48 h).

Excerpt of the above:
Under “reduction in live tick counts”, CS(=O)(=O)CC(=O)N1CC2(C1)OCc1cc(C3=NO[C@@](c4cc(Cl)c(F)c(Cl)c4)(C(F)(F)F)C3)ccc12 is recorded as 86.3% (Ixodes scapularis; dog; oral, 2 mg/kg, day 29, dosed 21 days pre-infestation; relative to: placebo).
With N#Cc1ccc(-c2ccc(-c3cccs3)o2)cc1F the mutant frequency was 35% (Salmonella enterica; TA1535; 10 µM, 48 h, with: sodium azide co-exposure; relative to: sodium azide alone).
Under “microbiological response at end of treatment”, CC[C@H](C)CCCCC(=O)N[C@@H](CCN)C(=O)N[C@H](C(=O)N[C@@H](CCN)C(=O)N[C@H]1CCNC(=O)[C@H]([C@@H](C)O)NC(=O)[C@H](CCN)NC(=O)[C@H](CCN)NC(=O)[C@H](CC(C)C)NC(=O)[C@@H](Cc2ccccc2)NC(=O)[C@H](CCN)NC1=O)[C@@H](C)O is recorded as “negative” (Enterobacter cloacae; carbapenem-resistant, human; inhaled plus intravenous, 25 mg inhaled plus 75 mg intravenous every 12 h, 11 d, with: fosfomycin and sulfamethoxazole).
O=C(O)C(=O)CBr: “decrease of intracellular amastigotes” 18.6% (Leishmania infantum; U-937 macrophages, infected; 273 µM, 48 h, highest non-cytotoxic concentration).
Cl.N=C(N)NCCNS(=O)(=O)c1cccc2cnccc12 — result for “microtubule sliding velocity”: “increased” (Chlamydomonas reinhardtii; dynein-driven sliding; pf14, isolated axonemes; 15 µM, 15 min, with: 1 mM ATP).
